Experimental data of several laboratories.
A part holds a random share of what one study measured. Substitutions count along the parent as printed.

Block 1
Target: Histone acetyltransferase KAT6A, winged helix 2, GST fusion (KAT6A, Homo sapiens, UniProt Q92794, residues 85-181)
Method: protein binding microarray
Molecule type: double-stranded DNA, one strand shown
Matrix: in vitro
Concentration: not given
Setting: 8-mer, flanks averaged, mean of 2 arrays, mostly near background
Reference: not given
Reading: higher = stronger binding
Target sequence (chain): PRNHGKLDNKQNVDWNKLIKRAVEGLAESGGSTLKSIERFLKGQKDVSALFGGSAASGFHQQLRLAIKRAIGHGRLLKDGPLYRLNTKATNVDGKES
`GTTGCCAA` has an E-score of -0.0634.
With `ATAATATG` the E-score was 0.061.
With `CTAGAACA` the E-score was 0.0748.
With `AAAAGGGT` the E-score was -0.0972.
For `AACAGTTG`, the E-score was -0.265.
The E-score of `GACGTCGC` is reported as -0.0752.
`GTGCAGTA` has an E-score of 0.0378.
`AAGCCTTC` gave an E-score of -0.247.
For `CATCTGTC`, the E-score was -0.0903.
For `AATACGGT`, the E-score was -0.104.
For `CTCGCTGC`, the E-score was 0.0539.
The E-score of `GACCCACC` is reported as 0.00891.
`CATACGGC` gave an E-score of 0.0862.
`GCAGGGGC` has an E-score of 0.188.
With `AATGGCTC` the E-score was -0.0548.
With `AATGCCCG` the E-score was -0.069.
`AAGGAACC` has an E-score of 0.168.
`GGTGTCAA` gave an E-score of 0.0896.
With `AGCGGACA` the E-score was -0.0587.
`CACTCATA` gave an E-score of -0.11.
For `AATTCTCC`, the E-score was -0.0222.
`AACTAGGT` has an E-score of 0.00538.
`GCTCTTCA` has an E-score of 0.0351.
`AACTAACC` has an E-score of 0.0825.
`GGGAGATA` gave an E-score of -0.0718.

Block 2
Target: RNA binding protein fox-1 homolog 2, RRM domain, GST-SBP tag (RBFOX2, Homo sapiens, UniProt O43251-10, residues 100-194)
Method: RNA Bind-n-Seq
Molecule type: RNA
Matrix: in vitro
Concentration: 365 nM
Setting: natural RNA segment, single round, ends assumed
Reference: no-protein control
Reading: higher = stronger binding
Target sequence (chain): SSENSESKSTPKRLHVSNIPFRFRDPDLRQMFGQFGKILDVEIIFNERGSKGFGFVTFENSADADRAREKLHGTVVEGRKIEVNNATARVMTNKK
For `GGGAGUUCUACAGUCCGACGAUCUGCCUUUUUUCUUUCUUUUCUUGGGGGGAUGGGAUAAAUGGGAUAUUUUUUAAAGAAUAAAUCCCGCAUGUGAAAGUUUAUGAAGGUUACUAGCAGGUUCUUUUUAAAAGUGGAAUUCUCGGGUGCCAA`, “RBNS enrichment (R)” read 6.83.
`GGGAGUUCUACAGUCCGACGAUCGAAAAAACUUAAAAAUUAAUAUGGUGUAUUUUUCCAAAUGAAAAAUCUCAAUUGAAAGCUUUUAAAAUGUAGAAACUUAAACACACCUUCCUGUGGAGGCUGAGAUGAAAUGGAAUUCUCGGGUGCCAA` — result for “RBNS enrichment (R)”: 0.628.
`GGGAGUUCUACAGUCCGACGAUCCCACCGGGCGCAUGCCUCCCAGGCCACCUCAGUCUCACCUGCCGGCUCUGGGCUGGCUGCUCCUAACCUACCUCGCCGAGCUGUCGGAGGGCUGGACAUUUGUGGCAGUGUGGAAUUCUCGGGUGCCAA` — result for “RBNS enrichment (R)”: 5.81.
Under “RBNS enrichment (R)”, `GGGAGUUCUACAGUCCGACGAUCUACAAGCUCAAGGGCCAGAGCCCAGAGACCCAUUUUCCCCUCCAAGGAGUGGGGCAGGAAGGGUCUCCCAGGCACGCUGUGCUCACCCCCAGGGCCACAUCUCAGCUCUCUGGAAUUCUCGGGUGCCAA` is recorded as 0.285.
`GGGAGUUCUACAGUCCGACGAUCCUGGGCAUAGCAGAGUUCAACGAGGUUUCUACAGAAAAGUGCAAUCUUUGUUGUUUUUGUAUUUAUUUGUAUGUUCAGAUCCAAAGGAUCCGUUGUAAAAAUAUAUAUGUUGGAAUUCUCGGGUGCCAA`: “RBNS enrichment (R)” 0.437.
`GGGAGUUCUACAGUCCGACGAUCCACGGAGAGGCAGGUGUGGCGUAAGGCCUCACUCCCGGCUGGGAAGGUCUCUGAUCACACAGAAGCAGCCCUGCCCAGCCUGGUCAUUUGCUGUCCGCUUUUCUCUGUGAUGGAAUUCUCGGGUGCCAA` — result for “RBNS enrichment (R)”: 0.345.
`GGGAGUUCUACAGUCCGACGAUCUCGGUUCUUAACACAGGAGACCCGACAAUGAGUGCACAAGUCAUGGACAUUCACGCUCAGUAGCUUAAGGGAAUAUGCGUUGUCUACAAUGGUGACUGAUCUCGAAUCAGUGGAAUUCUCGGGUGCCAA`: “RBNS enrichment (R)” 0.464.
`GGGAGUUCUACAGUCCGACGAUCCUCUCGAGUGUGCUGGUGUGCUGUGUAGGCUCCCGGGCCACAGUGGCUGUGGAGAAGCCCAGGCCCUUAGAAGAAUCACUGUAUUUGCCACCUGUACCUCACGGCUGCUAUGGAAUUCUCGGGUGCCAA` — result for “RBNS enrichment (R)”: 0.735.
`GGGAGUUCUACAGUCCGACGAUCAUGUGCGCUGGGAGUACUGCGUGCGCGCCAAGCGCGGCCAGACCGACACCUCGCUGCCAGGUUGUUUCAGCAAGGACCAGGUGUACCUGGACGGCAUCGUGCGCAUUCUGUGGAAUUCUCGGGUGCCAA`: “RBNS enrichment (R)” 0.483.
Under “RBNS enrichment (R)”, `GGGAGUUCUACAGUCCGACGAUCUACAUUUGGAAUUAACUGAAGCCAAACUGCUGGGUACACCUGUGAGGAUUUUUUUUUCCUUAAGUAAAUCAUUUCAAGUGUAAAAACUAUUUUCUUUUAAUCUGGAUCUUUGGAAUUCUCGGGUGCCAA` is recorded as 0.466.
`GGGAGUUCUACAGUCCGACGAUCGAUGUCCAGAACUGCAUUAGCCGCUGGGAGAGCCACCGAAGGCCCCAACAGGGGAUGCUCAUCACUGGAGACUGCGACUGGGAAGAACACUGCCCCCUCCCUCGGGUUGGUGGAAUUCUCGGGUGCCAA`: “RBNS enrichment (R)” 0.508.
For `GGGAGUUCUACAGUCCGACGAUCGAUGGUGAUGAUAAGAAAAGGCCAGUGAUUGUUCAUCGAGCCAUCUUGGGAUCAGUGGAAAGAAUGAUUGCUAUCCUCACAGAAAACUAUGGGGGCAAAUGGCCCUUUUGUGGAAUUCUCGGGUGCCAA`, “RBNS enrichment (R)” read 1.65.

Block 3
Target: Phosphate system positive regulatory protein PHO4, full length, GST-tagged (PHO4, Saccharomyces cerevisiae, UniProt P07270, residues 1-312)
Method: competition protein-binding microarray
Molecule type: double-stranded DNA, one strand shown
Matrix: in vitro
Concentration: 2 µM
Setting: whole 60-bp probe, lowest competitor level
Added: Cbf1 competitor, 0.05 µM
Reading: higher = stronger binding
Construct (chain): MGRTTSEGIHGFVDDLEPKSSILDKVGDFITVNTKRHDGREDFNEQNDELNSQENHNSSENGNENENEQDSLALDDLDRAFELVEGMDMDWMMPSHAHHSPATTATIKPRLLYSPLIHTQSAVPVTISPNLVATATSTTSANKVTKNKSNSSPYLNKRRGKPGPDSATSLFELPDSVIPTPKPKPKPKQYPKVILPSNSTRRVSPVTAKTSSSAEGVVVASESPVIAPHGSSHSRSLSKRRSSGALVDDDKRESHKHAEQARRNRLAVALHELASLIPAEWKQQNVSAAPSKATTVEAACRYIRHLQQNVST
`TGCGCAACAACTTGTAAGGTGGGTGTATGTCTAGAAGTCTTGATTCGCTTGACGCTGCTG` has a fluorescence intensity of 5290 a.u.
`TAAATCGAAACCACCATCGTGTCCTTCCTTGGGAACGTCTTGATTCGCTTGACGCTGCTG` has a fluorescence intensity of 8330 a.u.
With `TGAAGACCCACCCATCACGTCTATCCCGCCAGAGTCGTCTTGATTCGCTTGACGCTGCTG` the fluorescence intensity was 4190 a.u.
`CTTTCCCGATCTTGCAGGGTGGGTGTAGCACATTTGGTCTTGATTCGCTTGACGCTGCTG` gave a fluorescence intensity of 5500 a.u.
With `AACCTCTCAACAAAGCACGCTATGTACACACATCTAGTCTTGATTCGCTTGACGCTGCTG` the fluorescence intensity was 8400 a.u.
The fluorescence intensity of `GCCAGTCTGAGAAAGCACGCTGCTTGTGCTTGTTGGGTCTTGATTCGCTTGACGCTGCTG` is reported as 8690 a.u.
With `AAATTACTAAGTTGTCACTACACTTACCCCGTATGAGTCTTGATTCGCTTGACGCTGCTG` the fluorescence intensity was 4060 a.u.
`CCAGGCACCGAGGTCCATGTGAAAGGAGGCTTTGCGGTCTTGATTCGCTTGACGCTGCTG` gave a fluorescence intensity of 5640 a.u.
For `AAATTACTAAGTTGAACGGTGGGTGACGCCGTATGAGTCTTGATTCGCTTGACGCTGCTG`, the fluorescence intensity was 3680 a.u.
For `CTTCTGTAAATTTTTCACGTGTCATGACGCGCCCCGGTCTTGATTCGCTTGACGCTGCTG`, the fluorescence intensity was 12300 a.u.
`CTTGTATATATAAATGTCGTGATGGTTCTATGCCAAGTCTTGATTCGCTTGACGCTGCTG` gave a fluorescence intensity of 4090 a.u.
With `AAAAGAGGTTCGAGTCACGTGATGGAGATTACCCGCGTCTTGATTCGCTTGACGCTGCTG` the fluorescence intensity was 12000 a.u.
With `GAACAATATCCGAGTCACGTGAAATTTAGATAAGCAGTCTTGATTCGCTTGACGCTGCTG` the fluorescence intensity was 11000 a.u.
`AAAGCGGTAATTTGACGAGTGGGTGCAGATATCTATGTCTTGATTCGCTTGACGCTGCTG` gave a fluorescence intensity of 4090 a.u.
`CTGTCATCATGTACTCATGTGCCCGCGCGCGCGCTTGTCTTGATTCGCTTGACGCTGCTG` has a fluorescence intensity of 9320 a.u.
`CGGGGTTAAGTTTGTCACACTACTTGCTTGCAGCAGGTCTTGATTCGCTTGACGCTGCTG` has a fluorescence intensity of 3950 a.u.
The fluorescence intensity of `CGTCCTAGTGATTGTCACGACACTTCCATGAGGAAGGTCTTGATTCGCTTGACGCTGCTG` is reported as 5660 a.u.

Block 4
Target: CCND2, cyclin fold, Cln2 fusion (human)
Method: yeast growth competition, sequencing
Matrix: yeast
Setting: weak parent motif
Reference: not given
Reading: higher = stronger binding
Starting sequence: WEE1 docking peptide (human); HKTFRKLRLFDTP
`L7C`: “normalised enrichment score” 0.578.
Under “normalised enrichment score”, `L9H` is recorded as 0.0166.
`H1F`: “normalised enrichment score” -0.719.
Under “normalised enrichment score”, `P13T` is recorded as 0.446.
For `R5C`, “normalised enrichment score” read -0.629.
Under “normalised enrichment score”, `R8W` is recorded as 0.697.
`H1N` — result for “normalised enrichment score”: 0.25.
`L9E` — result for “normalised enrichment score”: 0.0696.
`L7G`: “normalised enrichment score” 0.982.
`D11T` — result for “normalised enrichment score”: -0.025.
`K2F`: “normalised enrichment score” -0.437.
`F4H` — result for “normalised enrichment score”: 0.389.
For `T3L`, “normalised enrichment score” read -0.166.
`K6H`: “normalised enrichment score” 0.238.
For `H1L`, “normalised enrichment score” read -0.351.
Under “normalised enrichment score”, `K2Q` is recorded as 0.608.
`K2L` — result for “normalised enrichment score”: 0.146.
`L7I`: “normalised enrichment score” 0.075.
For `T12I`, “normalised enrichment score” read 0.403.
For `H1G`, “normalised enrichment score” read 0.303.
For `T3V`, “normalised enrichment score” read 0.464.
`T12P`: “normalised enrichment score” -0.318.
`R5N`: “normalised enrichment score” -3.46.
For `H1E`, “normalised enrichment score” read -0.0275.
`P13Y`: “normalised enrichment score” 0.0279.

Repeated from above (block 4):
For `T3L`, “normalised enrichment score” read -0.166.
`K6H`: “normalised enrichment score” 0.238.
For `H1L`, “normalised enrichment score” read -0.351.
Under “normalised enrichment score”, `K2Q` is recorded as 0.608.
`K2L` — result for “normalised enrichment score”: 0.146.
